Measurements collected from several papers.
Lines come from different studies, so protocols differ. Numbers after ± are the reported error.

Structure (SMILES)	test system	conditions	Cmax [ng/mL]
COc1ccc2nc([S@@+]([O-])Cc3ncc(C)c(OC)c3C)[nH]c2c1	human, CYP2C19 intermediate metabolizers, plasma	oral, 40 mg/day, day 1	4030 ± 2410
Cc1[nH]c2ccccc2c1CCNCc1ccc(/C=C/C(=O)NO)cc1	human	20 mg, day 1, with: IM 400 mg	12.6
CC(C)(C)OC[C@@H]1C(=O)NCCN1C(=O)C[C@H](N)Cc1cc(F)c(F)cc1F	human, male, plasma	oral, single dose, fixed-dose combination with metformin, fed	5.86 ± 1.37
COCCCCn1c(C(=O)N(CC(C)C)[C@@H]2CNC[C@H](C(=O)N3CCOCC3)C2)nc2ccccc21	non-elderly human, plasma	oral, 160 mg once daily, day 7	1860
C=C(C)[C@@H]1CC[C@]2(NCCN3CCS(=O)(=O)CC3)CC[C@]3(C)[C@H](CC[C@@H]4[C@@]5(C)CC=C(C6=CC[C@@](CF)(C(=O)O)CC6)C(C)(C)[C@@H]5CC[C@]43C)[C@@H]12	healthy human volunteers, plasma	oral, 200 mg, tablet, fasted state, mean	449
CCOc1cc([C@@H](CS(C)(=O)=O)N2C(=O)c3cccc(NC(C)=O)c3C2=O)ccc1OC	healthy human, both sexes, plasma	oral, 30 mg single dose, with: rifampicin 600 mg oral once daily, dose 14	162
NS(=O)(=O)OC[C@@H]1C[C@@H](n2ccc3c(N[C@H]4CCc5ccccc54)ncnc32)C[C@@H]1O	human	intravenous, 15 mg/m^2 single dose, day 1	121
CC(C)C[C@H](NC(=O)[C@H](CCc1ccccc1)NC(=O)CN1CCOCC1)C(=O)N[C@@H](Cc1ccccc1)C(=O)N[C@@H](CC(C)C)C(=O)[C@@]1(C)CO1	human patients, plasma	intravenous infusion 10 min, 27 mg/m^2, day 16 of cycle 1, KRd regimen	2030 ± 282
Cc1cc(C)c2c(c1)[C@@H](N(Cc1cc(C(F)(F)F)cc(C(F)(F)F)c1)c1nnn(C)n1)CCCN2C[C@H]1CC[C@H](C(=O)O)CC1	healthy humans, plasma	oral, 100 mg, geometric mean, with: ketoconazole 400 mg	611
Cc1ccsc1C(=O)Nc1cc(CN2CCN(C(=O)CO)CC2)ccc1/C=C/c1n[nH]c2ccccc12	human patients, plasma	oral, 50 mg/day, day 28	2970 ± 373
O=C(c1cccnc1-c1ccncc1)N1CCC(O)(Cc2ccccc2)CC1	healthy human, plasma	oral, 600 mg once daily, day 1, arithmetic mean	3060
O=C([O-])CCCCCCCNC(=O)c1ccccc1O.[Na+]	human, severe hepatic impairment, plasma	oral, once daily, day 10, after dose 10, geometric mean	2360
CO[C@H]1C[C@@H]2CC[C@@H](C)[C@@](O)(O2)C(=O)C(=O)N2CCCC[C@H]2C(=O)O[C@H]([C@H](C)C[C@@H]2CC[C@@H](OC(=O)C(C)(CO)CO)[C@H](OC)C2)CC(=O)[C@H](C)/C=C(\C)[C@@H](O)[C@@H](OC)C(=O)[C@H](C)C[C@H](C)/C=C/C=C/C=C/1C	human, whole blood	intravenous, 60 mg/m2, cycle 1, with: valproic acid	1210

A few entries again:
Structure (SMILES)	test system	conditions	Cmax [ng/mL]
COCCCCn1c(C(=O)N(CC(C)C)[C@@H]2CNC[C@H](C(=O)N3CCOCC3)C2)nc2ccccc21	non-elderly human, plasma	oral, 160 mg once daily, day 7	1860
Cc1ccsc1C(=O)Nc1cc(CN2CCN(C(=O)CO)CC2)ccc1/C=C/c1n[nH]c2ccccc12	human patients, plasma	oral, 50 mg/day, day 28	2970 ± 373
